Measurements of several laboratories.
Protocols differ between the studies behind these lines.

Compound	test system	conditions	quantity	result
N#Cc1ccc2c(c1)[C@H]1CCCN(C(=O)c3ccc4[nH]cnc4c3)[C@H]1C2	human, plasma	oral, 240 mg once daily, steady state	Vz/F steady state	762 L
CN1C(=O)[C@@H](NC(=O)c2nnc(Cc3ccccc3)[nH]2)COc2cccnc21	healthy human, fasted, plasma	oral, 800 mg single dose, geometric mean	Vz/F	112 L
Cn1cc(-c2cn3nccc3c(-c3cnn([C@]4(CC#N)C[C@@H](C#N)C4)c3)n2)cn1	healthy human	400 mg once daily	Vz/F	519 L
C[C@H](Oc1ccc(Br)cc1-c1ccon1)C(=O)O	healthy male humans, plasma	oral, 400 mg once daily, day 10	Vz/F	33.5 L
C#C[C@]1(CO)O[C@@H](n2cnc3c(N)nc(F)nc32)C[C@@H]1O	human, plasma	oral, 30 mg, single dose, geometric mean	Vz/F	1870 L
Fc1ccc([C@@H]2CCNC[C@H]2COc2ccc3c(c2)OCO3)cc1	human, CYP2D6 intermediate metabolizers	oral, 20 mg, steady state, geometric mean	Vz/F	834 L
CN(C)C(=O)c1cc2cnc(Nc3ccc(N4CCNCC4)cn3)nc2n1C1CCCC1	human, moderate renal impairment, plasma	oral, 400 mg, geometric mean	Vz/F	3640 L
C[C@@H](c1ccc2nccn2c1)n1nnc2ncc(-c3cnn(C)c3)nc21	human, plasma	oral, 300 mg, cycle 2 day 1, multiple doses	Vz/F	180 L

A few entries again:
Compound	test system	conditions	quantity	result
C#C[C@]1(CO)O[C@@H](n2cnc3c(N)nc(F)nc32)C[C@@H]1O	human, plasma	oral, 30 mg, single dose, geometric mean	Vz/F	1870 L
